# Published values gathered from unrelated publications.
# Numbered parts are unrelated; each lists some results of a single study. Positions count from the first letter of the parent shown.

# Study 1
# Target: Hepatocyte nuclear factor 3-alpha (Foxa1, Mus musculus, UniProt P35582, residues 1-468, full length assumed)
# Technique: EMSA with sequencing
# Form: double-stranded DNA, one strand shown
# Sample: in vitro
# Concentration: 10 and 20 nM
# Setting: whole designed probe, mean of two concentrations, ends assumed
# Baseline: negative control set to 0
# Reading: higher = stronger binding
# All sequences stand within: GTGAGCGGTGCCCATTGATGGGGAAC … TTTCACTGGGATCGTGGGGAC
# Construct (chain): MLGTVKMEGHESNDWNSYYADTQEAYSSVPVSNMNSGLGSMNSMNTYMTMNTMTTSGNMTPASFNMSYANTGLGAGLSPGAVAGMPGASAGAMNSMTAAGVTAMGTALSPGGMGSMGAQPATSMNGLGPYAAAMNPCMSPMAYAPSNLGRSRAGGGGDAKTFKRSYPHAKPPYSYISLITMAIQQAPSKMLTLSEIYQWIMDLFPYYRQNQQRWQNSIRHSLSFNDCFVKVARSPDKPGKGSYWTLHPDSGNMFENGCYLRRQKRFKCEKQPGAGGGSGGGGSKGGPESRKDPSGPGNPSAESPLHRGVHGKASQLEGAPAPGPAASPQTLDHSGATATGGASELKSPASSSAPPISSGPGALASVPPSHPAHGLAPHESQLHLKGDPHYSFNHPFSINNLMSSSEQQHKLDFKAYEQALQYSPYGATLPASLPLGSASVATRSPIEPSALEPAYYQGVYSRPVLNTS
Oligonucleotide,normalised bound fraction [ratio]
CACTCATAGTCTTGCTATCCTTCATATACAGAGATGACCCTCCCAAGCCTAAAATCAACAGGGGGAGGCATAGAGCTGTCCTTCTGGCTCTAATGTTTGCTTTACCATCATCTTAGTCCACGCCCATTCCAGCATGTGAGAGCCAGTGTGAAGTGAGCAGAATATGGCATAAGTATGGAGTCATACATCCTTA,0.372
GCCAGGAAATGTAGTTCTTTAGCTGGACCCATTGCTGCTCCCCTCCCACAAATCAGTTTTTGTTAGAAAGAAGGGGAAGTGGATTTGGGGAAAGTAAATACAGCAGCTAAACAGCAAGTACAAATCACACATTCAAAAAGTGTGTCCATAAAGGGAAGGAGAGAGATGAGATGATAGTTGGAAGGGGATGTGG,0.274
AATCAGTTAGAAAAAGATAACCTAGTAGAAAAATGGGCAGAAGGCTTGAGTAGACATTTCTCAAAGAAAACATCCATGTGGAAAAATAAATAAGCAAATAAAGCCAACCATGTGAAAAGGTACCTGACTTCATTAATCATCAAGGGAATGCAAATGAACGTCACGATGCACCACTGCACACTCACCGGAAGGC,0.402
ATCTTCCCCCTCTTCCTTGCCCCACCAGTTTGCCTTCCCGGGTATATTGGAGATAGGAAATTAATATAAGCCGGCATTCGTTAACCCTCTTCTGGCGCAAACTGCACATTGGTCTGGATGAATCATGGTCCTTTGGCGACGCCAGGCTCCGGGAGAGCAAAGCACCGTGTCAGGGCCATGATCCGGGGTGGCC,-0.00164
AGATCTAGACTAATTCATCCCCTTCATTTTAAGTTTAGGTTTTAAATAGCTTTGTTTGGCTTGATCCTAGAGCTACACATTTACTTTTAACTTGTTTACTTTGTACCCTATCATTTAGGATATGCTATGTACTATTGTACTCTATTTGATATTTCAAACATTCTCTCATTTAGTGAAGAAGCTCCCAACCGGA,0.483
ATCTTCCCCCTCTTCCTTGCCCCACCAGCTCACCTACGGGGGTTATTTGCACAAAGGAAAATAAATAAAGCCGGCATTCGTTAACCCTCTTCACGCGCATACTGCTGTTTGCTCTGCATGAATCATGGTCCTTACGCGAGGCGTGGCTCCGGGAGAGCAAAGCACCGTGTCAGGCGCATGATCCGGGGTGGCC,0.391
GAACAGATGGATGCAGACACAGCGTTTGGTTCTGAAGGTTTTTAAGAGTTATGGCTTCATCTCTTGATCAGGCCAACAAGGCCTACTACCCTATGTAATCTACGGCTTTCCCTCAAAGGGAGGGCCCCACACTGCTCTCCACTCTTATCATTTTGTGGCTCTCTCCTCCTCACCCACCCACCCCAATCCTGGC,-0.0896
TCTGCTGCAGGGCTTGCAGGAACAAATGTTTACAGCCCCTAGGCGGCAGGGGGAGCATCTCCCCTCTGAGTTATGAGCTTTAGAGGCTCCTGTGTAATTTTTTACCTCTCTAGAGCATTGGTGACCGTGGGAGATCGGGATCTGTAAGCACTGAGGTTTTCTGTTTGCGTCATCGTGGCCAGGGTGGGGTGGG,-0.0235

# Study 2
# Target: Prothrombin, mature alpha-thrombin (F2, Homo sapiens, UniProt P00734)
# Technique: aptamer microarray, sandwich
# Form: DNA with 2'F-ANA
# Sample: in vitro
# Concentration: 200 nM
# Setting: whole 15-mer aptamer, many near background
# With: Cy3 exosite-II aptamer, 400 nM
# Reading: higher = stronger binding
# Oligonucleotide: GGTTGGTGTGGTTGG
Modification,mean fluorescence intensity
2'F-ANA at 1 2 3 8 10 15,87.6 a.u.
2'F-ANA at 3 8 11 14,642 a.u.
2'F-ANA at 1 2 3 6 9 10 11 13 14 15,58.5 a.u.
2'F-ANA at 2 6 7 8 10 12 13 14 15,120 a.u.
2'F-ANA at 1 2 3 4 7 8 9 12,437 a.u.
2'F-ANA at 4 5 7 8 10 12 13 14 15,43.6 a.u.
2'F-ANA at 5 6 7 9 10 11 14 15,49.4 a.u.
2'F-ANA at 1 2 4 5 6 7 10 13 14,51.8 a.u.
2'F-ANA at 3 4 7 11 13,635 a.u.
2'F-ANA at 1 2 3 6 7 8 10 12 13,87.2 a.u.
2'F-ANA at 1 2 3 4 6 8 11 15,156 a.u.
2'F-ANA at 1 2 3 4 5 8 9 10,49.4 a.u.
2'F-ANA at 1 5 8 10 15,48.3 a.u.
2'F-ANA at 2 4 8 9 12,640 a.u.
2'F-ANA at 1 3 4 5 6 9 11 12 14,47 a.u.
2'F-ANA at 3 5 6 12 13 14,55.8 a.u.
2'F-ANA at 1 2 3 4 8 9 11 14 15,103 a.u.
2'F-ANA at 1 2 3 4 5 6 7 8 11 12 13 15,83.1 a.u.
2'F-ANA at 2 3 5 8 15,139 a.u.
2'F-ANA at 1 3 6 8 9 10 13 14 15,82.2 a.u.
2'F-ANA at 1 3 5 7 9 10 15,47.2 a.u.
2'F-ANA at 1 2 5 6 7 8 9 11 14 15,53.6 a.u.
2'F-ANA at 2 10 13,128 a.u.
2'F-ANA at 4 5 6 8 9 12 14 15,48.8 a.u.
2'F-ANA at 1 4 7 10 11 15,51.3 a.u.

# Study 3
# Target: CCND3, cyclin fold, Cln2 fusion (human)
# Technique: yeast growth competition, sequencing
# Sample: yeast
# Setting: weak parent motif
# Baseline: not given
# Reading: higher = stronger binding
# Starting sequence: PKMYT1 docking peptide (human); SFEPRNLLSLFED
Variant,normalised enrichment score
SFETRNLLSLFED [P4T],0.115
SFEPRNLLSLFQD [E12Q],-0.0501
SFEWRNLLSLFED [P4W],0.0889
SFEPDNLLSLFED [R5D],0.115
SFEPRNLLSLFEG [D13G],0.0253
SFEPRNLVSLFED [L8V],0.0472
SFEPRNLLSLFER [D13R],0.0719
SFEPRNLLTLFED [S9T],0.0908
SFEPRNCLSLFED [L7C],0.121
SFEPRNLLSEFED [L10E],0.0535
SFEPRNLLALFED [S9A],0.0935
SFEPRVLLSLFED [N6V],0.1
SFEPPNLLSLFED [R5P],0.05
SFKPRNLLSLFED [E3K],0.101

# Study 4
# Target: RNA binding protein fox-1 homolog 2, RRM domain, GST-SBP tag (RBFOX2, Homo sapiens, UniProt O43251-10, residues 100-194)
# Technique: RNA Bind-n-Seq
# Form: RNA
# Sample: in vitro
# Concentration: 365 nM
# Setting: natural RNA segment, single round, ends assumed
# Baseline: no-protein control
# Reading: higher = stronger binding
# All sequences stand within: GGGAGUUCUACAGUCCGACGAUC … UGGAAUUCUCGGGUGCCAA
# Construct (chain): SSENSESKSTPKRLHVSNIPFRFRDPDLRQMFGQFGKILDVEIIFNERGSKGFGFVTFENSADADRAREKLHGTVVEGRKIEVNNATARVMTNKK
Oligonucleotide,RBNS enrichment (R)
GGAAGCACCUCCUUCACGGUCAGGGGGCCUGUGCUUGGCUUUCUGCCAUCAGACAUUAAGCUGUAGCUGGCUCUGGCCAGCUGCUCCAGUGUACCAGAACCUGAGGAUGC,0.342
CGGGGAGCCCUUCGGAGAUGAGGGUUUCCACGAGCGCGAGGGCCGCCCCUACUGCCGCCGGGACUUCCUGCAGCUGUUCGCCCCGCGCUGCCAGGGCUGCCAGGGCCCCA,0.366
UUGCGGUACCAGAAAGCAGCGAGAGCGAGACCUGGGAGCCAGGGCAGGGGUGGCUGACCCCAUGCUCAGCCUCUAGGGGACGGCAGGCCAUCAGGCUGGGGGCUGUGCUA,0.586
CUAACAGUUACUCUGAAGAUGUGUCAUGAUUUGUGAGCCUUUGGAUCUGGGUAAAUAGAGGACAAAACUAAUUCUUUGAGGCUUUAACUUGGGCACUUGCCUUGAUUCCU,0.719
CAAGGCCGGGGGUCGUGGCUUUGGCCUCUGACUUCUAAGCCAAGAUGCCCUGUAAACACUCUCUCAGCAGAACAAGGACAAAGUGCCGUGUCUGAGAGAGAGUGCCACAC,0.227
GCUUUGUAUACAGGAGAUAAUACCACAUCAUCGGUUAUCUCCAAACUCCAGUCUUCUCUCAACUGCCCAGUUGUAUGUUGUCAUCAAUCACUUUUUCAAGGCUGGGUAGA,0.502
AUGACCACUGUGCUUUGCUACCAACUGACUGAACUCCAGCCAGCCAAAUGAAACCAUGUACCCUUGGCAUAAGAGCCUAGGUAAAAUAAUAUGCAGUAGUAUAGUGUGGA,0.383
CUCCUCGGGCUCAUCACCGGUUCUGUGCCUGUGCUCUGUUGUGUUGGAGGGAAGGACUGGCGGUUCUGGUUUUUACUCUGUGAACUUUAUUUAAGGACAUUCUUUUUUAU,0.638
GAAGAAAUUAAAUGAAUUUCCCAGGCUUUUAGGAUCCUCUGAAAUUUUGAGGAUAGGUGAGGCCUGAAUUCCUGUCCUUAUUUCUUCUGACCAGAAGUUGCACAGACAUG,0.514
GUCCCCUGUUGUCGGUGAUUUGUUUGUCUUUCUGAUAGGUUGAAAAUUGUGUAAUAAACUUGAUGACGAUGUCAAUCUUUUAUACUGCAUUGUAUUUUUUUCCUUUUGUA,0.596
AUUACUGUGUACCUAAGUGGUGUGAUGUAAAUACUGGAAACAAAAACAGCAGUUGCAUUGAUUUUGAAAACAAACCCCCUUGUUAUCUGAACAUGUUUUCUUCAGGAACA,0.309
CUUAACAUUAUCAGUCAACUUCCACAUUAAUGAAAGUUGACCAUAGUUAUUUCCAAAUAAAAAGAAACCAACUCUUACCAGGUCUUGGACUGUGAUGUCAUAUUAUUCAG,0.328

# Study 5
# Target: Sal-like protein 4, full length isoform B (SALL4, Homo sapiens, UniProt Q9UJQ4-2, residues 1-616)
# Technique: universal PBM
# Form: double-stranded DNA, one strand shown
# Sample: in vitro
# Concentration: not given
# Setting: 8-mer, flanks averaged, mean of replicates
# Reading: higher = stronger binding
Oligonucleotide,E-score
GACGTTAA,0.184
TACCTGAA,0.2
ACAAACAA,0.186
CCCCATCC,-0.178
GACCCCCA,-0.289
ACGGAACA,-0.0663
AGTAAGTG,0.027
CCAGGGCG,-0.399
CAATTAGA,0.14
CCAGACCG,-0.336
TATGTACA,0.315
CAGCCTGA,-0.107
GGTTGGCA,-0.0652
CCCACGTC,-0.191
AAGTCCAC,-0.221
AGTCGATC,-0.19
GTAAAAAA,0.241
ACAGTAAT,0.215
GGCCGCTA,-0.308
ATTGAAAG,0.146
GGAAGTGA,-0.0779
CCCACTAA,-0.0111
GGTAGATA,0.189
ACATTGAG,0.0665

# Excerpt of the above (study 5):
Oligonucleotide,E-score
GGTAGATA,0.189
ATTGAAAG,0.146
ACATTGAG,0.0665
TACCTGAA,0.2
CCCACTAA,-0.0111
TATGTACA,0.315
AAGTCCAC,-0.221
